Assay results of several laboratories.
Each line is one published result; not all experiments were run side by side. ± marks the error that the study gave.

| Structure (SMILES) | test | system | conditions | how to read | quantity | result |
| --- | --- | --- | --- | --- | --- | --- |
| COC(=O)N[C@H](C(=O)N1CCC[C@H]1C(=O)Nc1ccc([C@@H]2CC[C@@H](c3ccc(NC(=O)[C@@H]4CCCN4C(=O)[C@@H](NC(=O)OC)C(C)C)cc3)N2c2ccc(C(C)(C)C)cc2)cc1)C(C)C |  | healthy human volunteers, plasma | oral, dose not given, alone, escitalopram interaction study |  | AUC(0-24) | 1270 ng·h/mL |
| CC(=O)N[C@H](CCCCNC(=O)C(C)F)C(=O)N[C@@H](CS)C(=O)N[C@@H](CS)C(=O)N[C@@H](CCC(=O)O)C(=O)N[C@@H](Cc1c[nH]cn1)C(=O)N[C@H](Cc1ccccc1)C(=O)N[C@@H](CCCNC(=N)N)C(=O)N[C@@H](Cc1c[nH]c2ccccc12)C(=O)N[C@@H](CS)C(=O)N[C@@H](CCCNC(=N)N)C(=O)N1CCC[C@H]1C(=O)N[C@H](C(N)=O)C(C)C (stereo partly shown) [fluorine-18 labelled] |  | male C57BL/6 mice, B16-F10 tumour | intravenous, 1 h | relative to: tumour over muscle | tumour to tissue uptake ratio | 5.78 ± 1.35 |
| CC[C@H](C)[C@H](NC(=O)[C@@H](N)CCCNC(=N)N)C(=O)N[C@H](C(=O)N1CCC[C@H]1C(=O)N[C@@H](C)C(N)=O)C(C)C |  | healthy volunteers, plasma | intravenous, 3.0 mg/kg daily, day 7, multiple ascending dose |  | mean residence time | 3.6 ± 0.6 min |
| O[C@H]1CCCN[C@@H]1CCCn1cnc2c(Cl)c(Cl)ccc21 |  | healthy human volunteers, plasma | oral, 50 mg, day 1, multiple ascending dose |  | AUC(0-tau) | 215 ng·h/mL |
| CC(C)[C@H](NC(=O)[C@@H]1CCCN1C(=O)[C@H](CCCNC(=N)N)NC(=O)[C@H](CO)NC(=O)[C@H](CCCCN)NC(=O)[C@H](C)NC(=O)[C@H](Cc1c[nH]cn1)NC(=O)CNC(=O)[C@H](CCCNC(=N)N)NC(=O)[C@H](CCCCN)NC(=O)[C@@H](NC(=O)[C@H](CO)NC(=O)[C@H](Cc1c[nH]cn1)NC(=O)[C@@H](NC(=O)CNC(=O)[C@H](CCC(=O)O)NC(=O)[C@H](Cc1c[nH]cn1)NC(=O)[C@H](CC(=O)O)NC(=O)[C@H](C)NC(=O)[C@H](CCC(=O)O)NC(=O)[C@H](CO)NC(=O)CNC(=O)[C@H](C)NC(=O)[C@H](CCC(=O)O)NC(=O)[C@@H](N)CC(=O)O)[C@@H](C)O)[C@@H](C)O)C(=O)O | LC-MS/MS | human serum | concentration not given, 4 h, room temperature, tube with gel separator | relative to: initial concentration | change in serum concentration | 18.9 ± 8% |
| CNC(=O)c1ccc(-c2cnn3ccc(C(=O)N(C)c4ccc(Cl)c(C(=O)OC)c4)cc23)cc1 |  | Wistar rats, both sexes, plasma | oral, 50 mg/kg/day, day 1, 2-week toxicology study |  | AUC(0-8 h) | 1.98 ng·h/mL |
| [123I]c1cncc(OC[C@@H]2CCN2)c1 | SPECT | human, hippocampus | intravenous bolus, 7.35 mCi | relative to: tissue over plasma | tissue/plasma ratio | 35.5 |
| CN1C(=CC=C2CCCC(=CC=C3N(CCCCCC(=O)O)c4ccccc4C3(C)C)C2=O)C(C)(C)c2ccccc21 |  | cell medium-acetonitrile | pH 7.5, 25 °C |  | emission maximum | 626 nm |
| CCCCCCCCCCCCCCCCCC[N+](C)(C)Cc1ccccc1 | in vitro-in vivo extrapolation | human |  |  | hepatic clearance | 1.06 mL/h/g liver |
| CC1=C2C[C@H]3[C@@H](CC[C@@H]4C[C@H](NS(C)(=O)=O)CC[C@@]43C)[C@@H]2CC[C@@]2(C1)O[C@@H]1C[C@H](C)CN[C@H]1[C@H]2C | safety | human patients | dose not given, within 30 days of discontinuation, phase I dose escalation | relative to: patients | deaths from disease progression | 11% |
| CCCCCCCCCCCCCC(=O)NCC(=O)N[C@@H](Cc1ccc(O)cc1)C(=O)NCC(=O)N[C@@H](CCCNC(=N)N)C(=O)N[C@@H](CCCCN)C(=O)N[C@@H](CCCCN)C(=O)N[C@@H](CCCNC(=N)N)C(=O)N[C@@H](CCCNC(=N)N)C(=O)N[C@@H](CCC(N)=O)C(=O)N[C@@H](CCCNC(=N)N)C(=O)N[C@@H](CCCNC(=N)N)C(=O)N[C@@H](CCCNC(=N)N)C(=O)N[C@@H](C)C(=O)N[C@@H](CCCNC(=N)N)C(=O)N[C@@H](CO)C(=O)N[C@@H](CCCNC(=N)N)C(=O)N[C@@H](CC(C)C)C(=O)N[C@@H](C)C(=O)N[C@@H](CCC(=O)O)C(=O)N[C@@H](CC(C)C)C(=O)N[C@@H](CCCNC(=N)N)C(=O)NCC(=O)N[C@H](C(=O)N1CCC[C@H]1C(=O)N[C@@H](CCCNC(=N)N)C(=O)NCC(=O)N[C@@H](CC(C)C)C(=O)O)C(C)C |  | rat | intrathecal, 20 µg/5 µL, cutoff 180 s |  | minimum time on rotarod | 147 ± 20 s |
| CC(C)C(=O)OC[C@H]1O[C@@H](n2ccc(NO)nc2=O)[C@H](O)[C@@H]1O |  | rat brain dialysate | 250 ng/mL, 6 h, 10 °C, autosampler stability, added: NHC 1000 ng/mL |  | remaining compound | 100.8 ± 0.7% |
| CCCCC/C=C/C=C1/C(=O)C=C[C@@H]1C/C=C\CCCC(=O)O | cell viability, MTT | mouse lung slices | 48 h |  | CC50 | 21.7 µM |
| COc1ccc(C[C@@H]2NC(=O)[C@H]([C@@H](C)O)NC(=O)[C@@H]3[C@@H]4CCN3C(=O)[C@@H]3Cc5cn(c6ccc(F)cc56)CCCCCCN(Cc5ccc(cc5)CCNC(=O)[C@]5(C)CCCN5C2=O)C(=O)CCC(=O)N[C@@H](C)C(=O)N[C@H](CNC(=O)CCCCC[N+](C)(C)C)C(=O)N[C@@H](Cc2cccc(c2)CNC(=O)CO4)C(=O)N3)cc1 |  | fasted healthy humans, plasma | oral, 100 mg single dose, with 1800 mg Labrasol, geometric mean |  | AUC(0-t) | 1.02 µM·h |
| O=c1[nH]c(Cc2ccccn2)nc2c1cnn2C1CCOCC1 |  | healthy men, extensive metabolizers, plasma | oral, 50 mg single dose, tablet, median |  | Tmax | 37.8 min |
| CN[C@@](C)(C[18F])C(=O)O |  | SCID mouse SK-OV-3 xenograft, kidney | 60 min, post injection |  | tissue uptake | 5.1 ± 0.8 %ID/g |
| CSCC[C@@H]1NC(=O)[C@H](CC(=O)O)NC(=O)CNC(=O)[C@H](CCCNC(=N)N)NC(=O)[C@H](C)NC(=O)[C@H](CCC(=O)O)NC(=O)[C@H](CCCNC(=N)N)NC(=O)[C@@H]2CSSC[C@@H]3NC(=O)[C@H](CO)NC(=O)[C@H]([C@@H](C)O)NC(=O)[C@@H]4CCCN4C(=O)[C@H](C)NC(=O)[C@H](Cc4c[nH]c5ccccc45)NC(=O)[C@H](CC(=O)O)NC(=O)CNC(=O)[C@H](CCCNC(=N)N)NC(=O)CNC(=O)[C@H](CCC(N)=O)NC(=O)[C@@H]4CCCN4C(=O)[C@@H](NC(=O)CNC(=O)C(C)F)CSSC[C@H](NC(=O)CNC(=O)[C@H](C)NC(=O)[C@H](CC(C)C)NC(=O)[C@H](CSSC[C@@H](C(=O)NCC(N)=O)NC(=O)[C@H]([C@@H](C)O)NC(=O)[C@H](CCCNC(=N)N)NC(=O)[C@@H]4CCCN4C1=O)NC(=O)[C@H](CC(=O)O)NC(=O)[C@H](CO)NC(=O)[C@H](CC(=O)O)NC(=O)[C@H](CCC(N)=O)NC(=O)[C@H](CO)NC3=O)C(=O)N[C@@H](C(C)C)C(=O)N2 (stereo partly shown) [fluorine-18 labelled] |  | nude mice U-87 MG xenograft, skin | intravenous, 2.5 h |  | tissue uptake | 0.4 ± 0.1 %ID/g |
| CC[C@H](C)[C@H](NC(=O)[C@H](C)NC(=O)[C@H](CCCCN)NC(=O)[C@H](CO)NC(=O)[C@H](CCC(=O)O)NC(=O)[C@@H]1CCCN1C(C)=O)C(=O)N[C@@H](CCCCN)C(=O)N[C@@]1(C)CCCC=CCCC[C@@](C)(C(=O)N[C@H](C(=O)N[C@@H](CO)C(=O)N[C@@H](CCCCN)C(=O)N[C@@H](CCC(=O)O)C(=O)N[C@@H](CCCNC(=N)N)C(=O)N[C@@H](CO)C(=O)N[C@@H](CCCCN)C(=O)N[C@@H](CCCNC(=N)N)C(=O)N[C@@H](CO)C(=O)N2CCC[C@H]2C(N)=O)C(C)C)NC(=O)[C@H](CCCCN)NC(=O)[C@H](CC(C)C)NC(=O)[C@H](CC(C)C)NC1=O | TEM | PBS | 200 µM, pH 7.4 |  | particle diameter | ~11 nm |
| CCc1ccccc1Nc1ccc2c(c1)C(c1ccccc1F)=NC(C)C(=O)N2 (stereo not shown) | shake flask | PBS | 24 h, pH 7.4 |  | solubility | < 1 µM |
| CCCCCOc1ccc(-c2ccc(-c3ccc(C(=O)N[C@H]4C[C@@H](O)[C@@H](O)NC(=O)[C@@H]5[C@@H](O)[C@@H](C)CN5C(=O)[C@H]([C@@H](C)O)NC(=O)[C@H]([C@H](O)[C@@H](O)c5ccc(O)cc5)NC(=O)[C@@H]5C[C@@H](O)CN5C(=O)[C@H]([C@@H](C)O)NC4=O)cc3)cc2)cc1 |  | infants, plasma | intravenous, 1.5 mg/kg/day after 3 mg/kg loading, 0 to 24 h |  | AUC at steady state, range | 54800 to 278000 ng·h/mL |
| CC[C@H](C)[C@H](NC(=O)[C@H](Cc1ccccc1)NC(=O)[C@H](CC(=O)O)NC(=O)[C@H](CCCNC(=N)N)NC(=O)[C@H](Cc1ccccc1)NC(=O)[C@H](CC1CCCCC1)NC(=O)[C@H](CCCCN)NC(=O)[C@H](CO)NC(=O)[C@H](CC(C)C)NC(=O)[C@H](CCCNC(=N)N)NC(=O)[C@H](CCSC)NC(=O)[C@H](C)N)C(=O)N[C@@H](CC(C)C)C(=O)N[C@@H](CCC(N)=O)C(=O)N[C@@H](CCCNC(=N)N)C(=O)N[C@@H](CCCCN)C(=O)N[C@@H](CCCCN)C(=O)O |  | rabbit erythrocytes | concentration not given, 30 min, 37 °C | relative to: Triton X-100 | hemolysis | not toxic |
| O=C(Nc1ccc(N2C(=O)[C@@H]3[C@H](C2=O)[C@@H]2C=C[C@H]3C2)c(Cl)c1)c1ccccn1 |  | rat, systemic plasma | oral, 10 mg/kg, HCl salt |  | AUC(0-6 h) | 0.858 µM·h |

Repeated from above:
| Structure (SMILES) | test | system | conditions | how to read | quantity | result |
| --- | --- | --- | --- | --- | --- | --- |
| CNC(=O)c1ccc(-c2cnn3ccc(C(=O)N(C)c4ccc(Cl)c(C(=O)OC)c4)cc23)cc1 |  | Wistar rats, both sexes, plasma | oral, 50 mg/kg/day, day 1, 2-week toxicology study |  | AUC(0-8 h) | 1.98 ng·h/mL |
